Measurements pooled from the literature.
Each line is one published result; not all experiments were run side by side. ± marks the error that the study gave.
UniProt Q9P289, sequence (whole entry, looked up): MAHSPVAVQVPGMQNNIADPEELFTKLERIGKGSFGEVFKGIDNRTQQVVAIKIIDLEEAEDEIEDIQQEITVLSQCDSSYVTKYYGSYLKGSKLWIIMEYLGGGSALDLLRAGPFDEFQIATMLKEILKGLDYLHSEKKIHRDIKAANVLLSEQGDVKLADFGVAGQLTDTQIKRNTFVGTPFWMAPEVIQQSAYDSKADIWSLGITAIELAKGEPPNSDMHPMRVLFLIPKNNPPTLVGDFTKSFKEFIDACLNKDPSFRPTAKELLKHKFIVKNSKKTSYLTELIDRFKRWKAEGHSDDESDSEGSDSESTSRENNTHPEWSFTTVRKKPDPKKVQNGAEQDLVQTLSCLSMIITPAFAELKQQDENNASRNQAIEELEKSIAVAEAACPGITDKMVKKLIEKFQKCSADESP
UniProt P11802, sequence (whole entry, looked up): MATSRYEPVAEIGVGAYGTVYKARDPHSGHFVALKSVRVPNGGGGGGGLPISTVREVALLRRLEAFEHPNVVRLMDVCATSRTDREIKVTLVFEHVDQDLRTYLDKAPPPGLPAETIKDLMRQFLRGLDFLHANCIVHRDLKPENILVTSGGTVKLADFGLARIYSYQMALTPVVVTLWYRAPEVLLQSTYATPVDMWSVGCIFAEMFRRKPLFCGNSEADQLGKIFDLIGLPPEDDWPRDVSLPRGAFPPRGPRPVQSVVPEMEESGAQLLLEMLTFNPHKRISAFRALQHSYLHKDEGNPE
UniProt P35232, sequence (whole entry, looked up): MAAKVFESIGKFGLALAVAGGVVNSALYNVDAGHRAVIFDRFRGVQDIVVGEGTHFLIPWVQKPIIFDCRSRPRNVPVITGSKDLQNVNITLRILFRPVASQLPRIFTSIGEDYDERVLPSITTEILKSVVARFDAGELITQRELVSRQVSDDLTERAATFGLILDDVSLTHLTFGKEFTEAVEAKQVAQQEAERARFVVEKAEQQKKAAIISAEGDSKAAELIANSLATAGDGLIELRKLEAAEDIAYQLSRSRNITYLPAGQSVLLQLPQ
UniProt O75884, sequence (whole entry, looked up): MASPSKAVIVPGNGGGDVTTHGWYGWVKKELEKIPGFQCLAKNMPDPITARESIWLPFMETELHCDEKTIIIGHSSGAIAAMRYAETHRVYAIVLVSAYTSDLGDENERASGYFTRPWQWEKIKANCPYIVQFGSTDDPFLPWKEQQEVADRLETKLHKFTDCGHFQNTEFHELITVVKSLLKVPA
UniProt P18031, sequence (whole entry, looked up): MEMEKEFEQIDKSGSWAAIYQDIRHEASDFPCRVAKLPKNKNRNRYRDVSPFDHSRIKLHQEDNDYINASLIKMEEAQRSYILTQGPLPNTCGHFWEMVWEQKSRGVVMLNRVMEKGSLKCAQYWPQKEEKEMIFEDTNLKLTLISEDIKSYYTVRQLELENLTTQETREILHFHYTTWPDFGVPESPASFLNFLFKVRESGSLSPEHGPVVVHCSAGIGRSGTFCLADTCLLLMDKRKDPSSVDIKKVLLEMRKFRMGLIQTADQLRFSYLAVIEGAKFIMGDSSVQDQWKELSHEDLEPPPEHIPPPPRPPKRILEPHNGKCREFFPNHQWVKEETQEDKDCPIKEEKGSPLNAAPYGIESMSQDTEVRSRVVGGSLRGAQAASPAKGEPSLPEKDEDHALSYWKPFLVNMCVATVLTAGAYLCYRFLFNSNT
UniProt P97612, sequence (whole entry, looked up): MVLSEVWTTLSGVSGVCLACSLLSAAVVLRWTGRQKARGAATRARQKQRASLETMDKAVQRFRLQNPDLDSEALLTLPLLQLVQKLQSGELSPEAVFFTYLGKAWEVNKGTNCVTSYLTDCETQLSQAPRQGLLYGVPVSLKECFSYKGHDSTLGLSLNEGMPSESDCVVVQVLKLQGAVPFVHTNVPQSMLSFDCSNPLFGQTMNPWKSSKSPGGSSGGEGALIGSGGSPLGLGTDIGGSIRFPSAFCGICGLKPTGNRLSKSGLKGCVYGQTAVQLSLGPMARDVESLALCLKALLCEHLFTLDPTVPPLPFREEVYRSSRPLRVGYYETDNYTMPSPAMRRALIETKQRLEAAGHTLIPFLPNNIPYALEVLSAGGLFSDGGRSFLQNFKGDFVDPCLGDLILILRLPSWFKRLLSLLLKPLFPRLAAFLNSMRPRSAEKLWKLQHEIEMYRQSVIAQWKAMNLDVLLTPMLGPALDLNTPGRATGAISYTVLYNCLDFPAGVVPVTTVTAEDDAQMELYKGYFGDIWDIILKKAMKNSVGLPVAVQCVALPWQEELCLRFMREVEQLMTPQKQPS
UniProt Q6NV75, sequence (whole entry, looked up): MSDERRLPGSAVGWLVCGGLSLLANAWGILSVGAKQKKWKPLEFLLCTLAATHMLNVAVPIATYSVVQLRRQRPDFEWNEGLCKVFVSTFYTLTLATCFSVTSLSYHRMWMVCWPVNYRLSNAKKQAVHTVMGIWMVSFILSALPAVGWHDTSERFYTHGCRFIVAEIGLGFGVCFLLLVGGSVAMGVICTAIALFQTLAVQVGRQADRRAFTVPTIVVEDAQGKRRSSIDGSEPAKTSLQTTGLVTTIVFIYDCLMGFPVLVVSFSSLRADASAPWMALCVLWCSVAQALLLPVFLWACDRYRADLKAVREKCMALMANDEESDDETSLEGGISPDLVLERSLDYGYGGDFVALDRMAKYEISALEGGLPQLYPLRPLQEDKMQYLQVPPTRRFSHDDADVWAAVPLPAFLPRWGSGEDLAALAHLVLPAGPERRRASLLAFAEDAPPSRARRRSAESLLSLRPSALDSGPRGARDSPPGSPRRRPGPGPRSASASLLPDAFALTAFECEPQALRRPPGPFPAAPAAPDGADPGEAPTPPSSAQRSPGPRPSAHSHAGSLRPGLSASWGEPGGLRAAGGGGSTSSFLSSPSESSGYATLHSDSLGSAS
UniProt P41146, sequence (whole entry, looked up): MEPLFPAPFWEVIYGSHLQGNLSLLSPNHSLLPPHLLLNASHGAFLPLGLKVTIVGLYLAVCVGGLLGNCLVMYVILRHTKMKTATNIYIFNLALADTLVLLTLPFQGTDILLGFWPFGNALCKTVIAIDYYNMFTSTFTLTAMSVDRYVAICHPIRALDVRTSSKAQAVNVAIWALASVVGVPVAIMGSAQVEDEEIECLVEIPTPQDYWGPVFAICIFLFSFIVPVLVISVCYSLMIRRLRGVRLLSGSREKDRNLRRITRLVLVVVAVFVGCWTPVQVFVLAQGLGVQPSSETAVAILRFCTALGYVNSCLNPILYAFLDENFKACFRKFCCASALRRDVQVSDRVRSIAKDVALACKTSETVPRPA

| Structure (SMILES) | target or system | assay | system | setting | how to read | endpoint | value |
| --- | --- | --- | --- | --- | --- | --- | --- |
| O=C(Nc1cccnn1)N1CCC(=Cc2cccc(Oc3ccc(C(F)(F)F)cn3)c2)CC1 | Nociceptin receptor (OPRL1, Homo sapiens, UniProt P41146) | radioligand binding, inhibitor |  | 10 µM, human, added: [3H]nociceptin |  | inhibition | 2% |
| CC[C@H](C)[C@H](NC(=O)CNC(=O)[C@@H](N)CCCCN)C(=O)N[C@@H](CC(C)C)C(=O)N[C@@H](CCCCN)C(=O)N[C@@H](CCCNC(=N)N)C(=O)N[C@@H](CCC(=O)O)C(=O)N[C@@H](CCCCN)C(=O)N[C@@H](CCCNC(=N)N)C(=O)N[C@@H](CC(C)C)C(=O)N[C@@H](CCCNC(=N)N)C(=O)N[C@@H](CCCNC(=N)N)C(=O)N[C@@H](CCCCN)C(=O)N[C@@H](CC(N)=O)C(=O)N[C@H](C(=O)N[C@@H](Cc1c[nH]cn1)C(=O)N[C@@H](Cc1c[nH]c2ccccc12)C(=O)N1CCC[C@H]1C(=O)N[C@@H](CCC(=O)O)C(=O)N[C@@H](CCC(=O)O)C(=O)NCC(=O)N[C@@H](CCCCN)C(=O)N[C@@H](CC(C)C)C(=O)N[C@@H](CCCNC(=N)N)C(=O)N[C@@H](CCC(=O)O)C(=O)N[C@@H](Cc1ccc(O)cc1)C(=O)N[C@@H](Cc1ccccc1)C(=O)N[C@@H](Cc1ccc(O)cc1)C(=O)N[C@@H](Cc1ccccc1)C(=O)N[C@@H](CCC(=O)O)C(=O)N[C@@H](CC(C)C)C(=O)N[C@@H](CC(=O)O)C(=O)N[C@@H](CCC(=O)O)C(=O)N[C@@H](C)C(=O)N[C@@H](CCC(=O)O)C(=O)N[C@@H](CCCNC(=N)N)C(=O)N[C@H](C(=O)N[C@@H](CC(N)=O)C(=O)N[C@H](C(=O)O)C(C)C)C(C)C)C(C)C | HeLa and HEK-293T cells | phosphatase bead binding, competitive inhibitor, PIB pulldown iBAQ LC-MS/MS, item: PPP6R3 |  | concentration not given | baseline: untreated control | log2 fold change | -0.00455 |
| Oc1ccc2c3c1O[C@H]1[C@@H](O)CC[C@@]4(O)[C@@H](C2)N(CC2CCC2)CC[C@]314 | Probable G-protein coupled receptor 153 (GPR153, Homo sapiens, UniProt Q6NV75) | β-arrestin recruitment, TANGO luminescence, item: GPR153 |  | concentration not given | baseline: basal luminescence | log2 fold change | 0.136 |
| CCCCN1CCC(COC(=O)c2ccc(N)c(O[11CH3])c2)CC1 |  | 5-HT4 receptor binding, PET | rhesus monkey (Macaca mulatta), brain hippocampus | dose not given, baseline scan, unit not given | baseline: cerebellum reference region | binding potential BPND | 0.48 ± 0.06 |
| CCCCCCCC[C@H]1O[C@H]1C/C=C/C=C/[C@H](O)CC(=O)NC1=C[C@](C)(CC)OC1=O | Na(+)-translocating NADH-quinone reductase subunit B, whole Na+-NQR complex (nqrB, Vibrio cholerae serotype O1, UniProt Q9KPS2, G141A) | ITC |  | concentration not given, 20 °C, NqrB-G141A mutant |  | binding stoichiometry | 0.61 ± 0.1 |
| CO[C@H]1C[C@@H]2CC[C@@H](C)[C@@](O)(O2)C(=O)C(=O)N2CCCC[C@H]2C(=O)O[C@H]([C@H](C)C[C@@H]2CC[C@@H](OC(=O)NCCOCCOCCOCCOCCOCCOCCOCCOCCC(=O)N3CCc4cc(Cn5nc(-c6ccc7oc(N)nc7c6)c6c(N)ncnc65)ccc4C3)[C@H](OC)C2)C[C@@H](O)[C@H](C)/C=C(\C)[C@@H](O)[C@@H](OC)C(=O)[C@H](C)C[C@H](C)/C=C/C=C/C=C/1C |  | phase 1 dose escalation, item: nausea | advanced solid tumour patients | intravenous, 16 mg weekly, any grade |  | TRAE incidence | 75% |
| COc1cc2c(Oc3ccc4[nH]c(C)cc4c3F)ccnc2cc1OCC1(N)CC1 |  |  | paediatric recurrent refractory sarcoma | 8 mg/kg |  | grade 1 or 2 Dizzy | 13.3% |
| O=C(c1ccc(Cl)cc1)N1CCN2C(=O)N(OC(=O)N3CCOc4ccccc43)C(=O)C2C1 (stereo not drawn) | Serine hydrolase RBBP9 (Homo sapiens, UniProt O75884) | enzyme activity, inhibitor, MS-based ABPP | SW-620 conditioned medium | 10 µM, 1 h, 37 °C | baseline: compound over DMSO, lower = stronger inhibition | median ratio | 1.3 |
| COc1ccc(N2C(=O)N(c3c(C)cccc3Cl)Cc3cnc(Nc4ccc(C5CCN(C)CC5)cc4OC)nc32)nc1 | STK26 (Homo sapiens, UniProt Q9P289) | kinase activity, inhibitor |  | 0.5 µM, MST4 |  | inhibition | 14% |
| CC[C@H](C)[C@@H]1NC(=O)[C@@H]2CCCN2C(=O)[C@H](CC(C)C)NC(=O)[C@H](CC(C)C)NC(=O)CNC(=O)[C@@H](NC(=O)[C@@H](NC(=O)[C@H](CC(=O)O)NC(=O)CNC(=O)[C@@H](NC(=O)[C@H](C)NC(=O)CNC(=O)[C@H](CCCCN)NC(=O)[C@H](CC(C)C)NC(=O)[C@H](CC(C)C)NC(=O)[C@H](CCCCN)NC(=O)CNC(=O)[C@@H](NC(=O)[C@@H](N)CC(C)C)C(C)C)C(C)C)C(C)C)CSSC[C@@H](C(=O)O)NC1=O |  | RNA-seq, item: Syk mRNA | mouse traumatic brain injury, frontal cortex and hippocampus | dose not given | baseline: TBI plus compound vs TBI | log2 fold change | -2.17 |
| C[C@@H](O)[C@H](NC(=O)[C@@H]1CSSC[C@H](NC(=O)[C@@H](Cc2ccccc2)NC(=O)CN2CCN(CC(=O)[O-])CCN(CC(=O)[O-])CCN(CC(=O)[O-])CC2)C(=O)N[C@@H](Cc2ccc(O)cc2)C(=O)N[C@H](Cc2c[nH]c3ccccc23)C(=O)N[C@@H](CCCCN)C(=O)N[C@@H]([C@@H](C)O)C(=O)N1)C(=O)O.[177Lu+3] | MEC1 treated with 200 µM zebularine | gamma counter |  | 60 min efflux after 2 h loading |  | retention | 36.1% |
| COc1cc(Nc2ncc(F)c(Nc3ccc4c(n3)NC(=O)C(C)(C)O4)n2)cc(OC)c1OC | PTPN1 (Homo sapiens, UniProt P18031) |  |  | PTP1B |  | IC50 | > 10 µM |
| O=C(Nc1cnccc1Cl)N1CCN(Cc2ccc3c(c2)OC(F)(F)O3)CC1 | Faah (Rattus norvegicus, UniProt P97612) | probe labelling, inhibitor, competitive ABPP with azido-FP probe | rat brain soluble fraction | 1 µM |  | inhibition | 68.1% |
| [2H]c1c([2H])c([C@]2([2H])CCCN2C(=O)C(C)(C)Oc2ccc3cn[nH]c3c2)c([2H])c([2H])c1C([2H])([2H])[2H] | CDK4 (Homo sapiens, UniProt P11802) | KINOMEscan |  | 1 µM | baseline: DMSO control | remaining binding | 94% |
| C[C@H]1CN(c2n[nH]c3nc(N[C@H]4CC[C@H](NS(=O)(=O)CCC(F)(F)F)CC4)ncc23)CCO1 | Prohibitin 1 (PHB1, Homo sapiens, UniProt P35232) | competitor, Kinobeads competition | human cell extract | 0.8 µM | baseline: vehicle | relative abundance | 1.08 |

A few entries again:
| Structure (SMILES) | target or system | assay | system | setting | how to read | endpoint | value |
| --- | --- | --- | --- | --- | --- | --- | --- |
| COc1cc(Nc2ncc(F)c(Nc3ccc4c(n3)NC(=O)C(C)(C)O4)n2)cc(OC)c1OC | PTPN1 (Homo sapiens, UniProt P18031) |  |  | PTP1B |  | IC50 | > 10 µM |
